# Measurements collected from several papers.
# Numbered parts are unrelated; each lists some results of a single study.

# Study 1
# Target: RNA binding protein fox-1 homolog 2, RRM domain, GST-SBP tag (RBFOX2, Homo sapiens, UniProt O43251-10, residues 100-194)
# Method: RNA Bind-n-Seq
# Molecule type: RNA
# Matrix: in vitro
# Tested at: 365 nM
# Setting: natural RNA segment, single round, ends assumed
# Reference: no-protein control
# Direction: higher = stronger binding
# All sequences stand within: GGGAGUUCUACAGUCCGACGAUC … UGGAAUUCUCGGGUGCCAA
# Residues (chain): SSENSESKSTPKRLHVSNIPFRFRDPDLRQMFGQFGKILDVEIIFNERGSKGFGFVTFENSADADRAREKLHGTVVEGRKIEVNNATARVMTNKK
Sequence,RBNS enrichment (R)
UACUUAACCUCAGAAUCGGGCCAGUUCUGUAGAUCCUCAAGAGAAGCUUCAGUGACUGUCCCUUUGAAUUGCCUCCGAUUUCAAAAAUAAAUAAAUAAAUCUACACGUUU,0.593
UAUAUAUAUAUAUAUACAUAUACAUAUAUAUGUUGAGGGAGGAGUAAGAAAGAAAGCCAGGACAAUAACUGGGCCAGCAGCUCUGAAGCACACCUUCCCCGUCUGUCCCA,0.386
UUACUUUUCAUUGAAUUGAAAUUUAUUUUGGAUGAAUGACUGGCAUGAACACGUCUUUGAAGUUGUGGCUGAGAAGAUGAGAGGAAUAUUUAAAUAACAUCAACAGAACA,6.5
AGGGAUGCAGAGUCUGAUGCCAGCGUCUUGCUGGGGGAGUGGCCUAGAAGGGGAUCCUAACAGGGACUUCUGGAGCAGACAGAGCCUGCCAGUGCCUGUGGAGUCAGCCA,1.3
AGGCAACUCGUACCCAAAUUUCCAAGACACAAACAUGACCUAUCCAAGCGCAUUACCCACUUGUGGCCAAUCAGUGGCCAGGCCAACCUUGGCUAAAUGGAGCAGCGAAA,0.655
CUAAAUAUUUUGUUUAUACUAAGGGACAAUUAUUUUAAGACCAUGGAUUUAAAAAAAAAAAAAAAAACUCUGUUUCUGCAGGGGAUGAUAUUGGUGAGUUGCCAAAGAAG,0.51
AGAAGUCUGGGAAGCCCCUUUCGCUCUGCCUCCUGCAUCCUCCCAGAUAACAAAACACAUUAACACAUUCUUACUGGAUAAUCCAAUUUGCCAAAACAUUUGGGCAUUGU,0.694
UUCCAUGUAGAGGGUGACGAACUCUGGAUUCCCCCCCACCCCCACCCCGUGCCGUGUAGACACUCAUCUUCUGCAUGACAUGAUCUACCAUUCGGUGUAAACAUUUGUGU,0.348
UUUGAGAAAAUGCACAAAGCUCUGGGAGAAAGCAGCUACCAAGACUAUCUGGAACUGUGUCUGUCAGACCAAUGGUACCAGGGAGGCUGCAGUGCUGCCAGCUUUUCAAG,0.383
GCUUUAUCAUUCUGAAAACUCAGGAUACAGCUUAUUCAUAGCAUUGUGGGUCUCUCCAGUAAGAAAGAUGCUAAAAGUUUUGUGCACUUUUUGUGUGUGUAAUGCAAAUU,0.484
UUAUUGUUAUCACCUAUGUACAAUGGAAAGGGAUUUUAAGCACAAACCUGCUGCUCAUCUAACGUUGGUACAUAAUCUCAAAUCAAAAGUUAUCUGUGACUAUUAUAUAG,0.349
AUGUCUGCUUCCGUCCCCUCGUUCUGGUGAACGUUGGGAGAGAGGAUGAGAGAGACAUUAAAAUUCUGGAGAUGUGCUUUUAUGAUGUUACAGAUCCAAAGACAUAGAGU,0.511

# Study 2
# Target: Centromere-binding protein 1, full length, His-tagged (CBF1, Saccharomyces cerevisiae, UniProt P17106, residues 1-351)
# Sequence of UniProt P17106 (whole entry, looked up): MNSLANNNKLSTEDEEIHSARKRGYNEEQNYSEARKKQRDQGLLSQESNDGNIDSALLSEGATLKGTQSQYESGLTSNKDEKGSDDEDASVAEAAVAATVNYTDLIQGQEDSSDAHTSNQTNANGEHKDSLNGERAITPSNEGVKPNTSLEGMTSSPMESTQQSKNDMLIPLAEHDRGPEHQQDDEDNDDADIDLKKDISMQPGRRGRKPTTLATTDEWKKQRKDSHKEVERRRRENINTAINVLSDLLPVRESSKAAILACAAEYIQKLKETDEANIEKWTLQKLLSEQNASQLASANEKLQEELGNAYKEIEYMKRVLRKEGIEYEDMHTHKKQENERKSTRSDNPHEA
# Method: competition protein-binding microarray
# Molecule type: double-stranded DNA, one strand shown
# Matrix: in vitro
# Tested at: 2 µM
# Setting: whole 60-bp probe, lowest competitor level
# Added: Pho4 competitor, 0.05 µM
# Direction: higher = stronger binding
# All sequences stand within: … GTCTTGATTCGCTTGACGCTGCTG
Sequence,fluorescence intensity [a.u.]
CTAACGAAGGTTTGTCACGACACTTACAAGCCAAGT,218
TTGCGAAAGCCGCAGAACGTGATGGATAAACATCAA,339
TGGGTTTCTGTGAACACCGTGCCAGACACCATTGAC,76.7
CATACCCAACCTTGTCACTCTACTTAAGATATTTGT,83.1
CTTCTGTAAATTTGGCTAGTGGGTGGACGCGCCCCG,73.4
CCTCTTTACATTTGGCATGCGTTGACACTATAGATT,94.3
CTAACGAAGGTTTGTAGAGTGGGTGACAAGCCAAGT,54.9
CGGGGTTAAGTTTTTCACGTGATATGCTTGCAGCAG,4510
TAAGGCCTTTATTGCGTCGTGCTTTCTCCTCTCATA,67.4
CTTCTGTAAATTTGAGTTGTGGGTGGACGCGCCCCG,81.1
TTACTGGCGTAGACACCCGTGAAGTAGTGCAATACT,66.1
AAAGCGGTAATTTGCCGCGTGGGTGCAGATATCTAT,88.5
CAAATGTTGCCTTTGCACGTGAAGGTGCATTTGTAT,773
ATTTCCTCCCGTCTCTGCGTGCCAGACGGGATCAGC,62.3
CGTCCTAGTGATTGGACTGTGGGTGCCATGAGGAAG,74.2
AAATTACTAAGTTGCTAAGTGGGTGACGCCGTATGA,76.8
GCTCAAGCGTTCGGACGCGTGAAATGCTTCAACTGA,60.8
CTTTCCCGATCTTGGACCGTGGGTGTAGCACATTTG,52.4
TGTTCATTCATTATTCAATGCAAAGTATAAAGACAG,86.4
GTCTTGTCTCATTGGCAGGTGGGTGTCCCCACTTCA,78
CAAAACGTTCGTTTCTGCGTGCCAGTCTTCTCCACT,72.7
CACAGACCTTACTTCCACGTTAGTGTCATCGAAGAT,80.2
CGTCCTAGCGATTATCACGTGTTTTCCATGAGGAAG,4630
AAGACGAAATTCTTGTTCGTGCCGATGTTGCCCTTT,66.4
CTTTGTCGTCCCTGGCACGGCTGTCTTGTGCTCAGT,69.7

# Study 3
# Target: Prothrombin, mature alpha-thrombin (F2, Homo sapiens, UniProt P00734)
# Method: aptamer microarray, sandwich
# Molecule type: DNA with 2'F-ANA
# Matrix: in vitro
# Tested at: 200 nM
# Setting: whole 15-mer aptamer, many near background
# Added: Cy3 exosite-II aptamer, 400 nM
# Direction: higher = stronger binding
# Sequence: GGTTGGTGTGGTTGG
Modification,mean fluorescence intensity [a.u.]
2'F-ANA at 2 7 8 10 11 12 13 15,159
2'F-ANA at 1 2 6 7 10 12 15,72.1
2'F-ANA at 2 3 4 7 9 11 12,774
2'F-ANA at 1 4 6 7 9 10 11 12 13 14 15,93.3
2'F-ANA at 2 5 6 7 11 12 14 15,52
2'F-ANA at 2 4 5 6 8 10 11,48.9
2'F-ANA at 1 7 8 9 10 15,65.8
2'F-ANA at 1 3 7 10 11 13 15,74.9
2'F-ANA at 1 2 3 4 5 6 9 11,54
2'F-ANA at 1 3 5 7 8 9 12 14,45.2
2'F-ANA at 1 2 11 12 14,90.2
2'F-ANA at 4 6 8 9 11 12 13,278
2'F-ANA at 5 6 8 9 10 12 15,49.9
2'F-ANA at 1 6 7 8 9 10 11 13 14 15,53.1
2'F-ANA at 6 8 10 11 14,98.3
2'F-ANA at 2 5 6 7 11 13 15,147
2'F-ANA at 2 3 5 6 8 9 10 11 12 13 15,58.5
2'F-ANA at 1 2 3 4 6 7 9 13,83.7
2'F-ANA at 1 2 4 10,51.8
2'F-ANA at 1 5 10 13 14 15,54.2
2'F-ANA at 1 3 4 5 6 7 8 11 13 14 15,45.8
2'F-ANA at 1 4 7 8 10 11 12 13 14 15,86
2'F-ANA at 1 2 4 6 12 13 14 15,56
2'F-ANA at 3 6 10 12 13,522

# Study 4
# Target: Histone acetyltransferase KAT6A, both winged helices, GST fusion (KAT6A, Homo sapiens, UniProt Q92794, residues 1-181)
# Method: protein binding microarray
# Molecule type: double-stranded DNA, one strand shown
# Matrix: in vitro
# Tested at: not given
# Setting: 8-mer, flanks averaged, mean of 2 arrays, mostly near background
# Reference: not given
# Direction: higher = stronger binding
# Residues (chain): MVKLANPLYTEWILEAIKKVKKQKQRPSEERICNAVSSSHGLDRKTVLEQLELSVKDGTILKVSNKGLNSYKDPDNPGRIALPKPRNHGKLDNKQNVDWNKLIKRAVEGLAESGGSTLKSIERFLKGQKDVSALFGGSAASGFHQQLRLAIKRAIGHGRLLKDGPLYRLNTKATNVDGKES
Sequence,E-score
AGCCGAGA,0.0854
CCCGCGGA,0.263
ACGAGCAG,-0.0932
GTAACTCA,-0.166
AGACCCGA,0.0469
CGAGCCCG,0.224
GCCACGGC,0.299
CTCGCGTC,0.18
AGGTAGCC,-0.103
ACGCTGAT,0.24
ACAATGGG,-0.15
ATGAACTG,0.049
CAGGTGTA,-0.0971
CCGAATTC,0.172
ACGGACTC,0.242
AGCTGTGC,-0.0949
TTCTTCAA,-0.145
ATTCGTCG,0.0349
CCGCTAGA,0.222
GCGATAAC,0.0703
AATGAGCA,-0.146
CACTACAG,-0.202

# Study 5
# Target: Sal-like protein 4, full length isoform A (SALL4, Homo sapiens, UniProt Q9UJQ4, residues 1-1053)
# Sequence of UniProt Q9UJQ4 (whole entry, looked up): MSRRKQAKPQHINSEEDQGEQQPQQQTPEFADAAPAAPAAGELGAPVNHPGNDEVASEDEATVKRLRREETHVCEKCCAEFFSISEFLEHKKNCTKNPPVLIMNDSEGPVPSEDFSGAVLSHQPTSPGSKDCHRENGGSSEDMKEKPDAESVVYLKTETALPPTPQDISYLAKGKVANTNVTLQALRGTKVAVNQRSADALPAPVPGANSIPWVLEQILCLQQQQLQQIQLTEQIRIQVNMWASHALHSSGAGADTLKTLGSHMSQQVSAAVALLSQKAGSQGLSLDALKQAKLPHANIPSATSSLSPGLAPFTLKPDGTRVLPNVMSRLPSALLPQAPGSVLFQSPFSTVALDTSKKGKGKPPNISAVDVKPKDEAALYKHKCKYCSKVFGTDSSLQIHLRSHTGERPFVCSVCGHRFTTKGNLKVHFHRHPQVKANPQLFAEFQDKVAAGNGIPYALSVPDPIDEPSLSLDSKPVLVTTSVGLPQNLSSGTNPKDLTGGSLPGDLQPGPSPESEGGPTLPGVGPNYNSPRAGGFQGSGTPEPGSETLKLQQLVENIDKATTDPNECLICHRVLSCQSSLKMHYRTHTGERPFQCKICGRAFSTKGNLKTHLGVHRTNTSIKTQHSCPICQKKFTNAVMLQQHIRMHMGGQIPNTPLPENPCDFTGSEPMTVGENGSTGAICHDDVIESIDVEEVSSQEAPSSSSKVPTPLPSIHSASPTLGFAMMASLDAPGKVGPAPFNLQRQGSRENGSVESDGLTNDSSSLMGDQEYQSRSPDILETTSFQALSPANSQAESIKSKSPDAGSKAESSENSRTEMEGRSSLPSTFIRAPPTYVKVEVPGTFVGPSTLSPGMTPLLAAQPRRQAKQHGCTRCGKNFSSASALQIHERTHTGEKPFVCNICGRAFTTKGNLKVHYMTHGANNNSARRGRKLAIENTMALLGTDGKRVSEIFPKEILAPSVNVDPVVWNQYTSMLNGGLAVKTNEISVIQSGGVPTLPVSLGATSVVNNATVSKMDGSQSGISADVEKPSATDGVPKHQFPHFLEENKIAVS
# Method: universal PBM
# Molecule type: double-stranded DNA, one strand shown
# Matrix: in vitro
# Tested at: 600 nM
# Setting: 8-mer, flanks averaged, mean of replicates
# Direction: higher = stronger binding
Sequence,E-score
GCCGGTAC,-0.233
AATGGTCC,-0.00717
AAACGAGT,0.136
CGGTTGGA,-0.163
CTAACGGC,-0.0793
CTATGGAG,0.0504
CCTACGTA,0.15
GTAGTAGA,0.126
TCCGACCA,-0.065
ACGTTCCC,-0.154
ATTACGCA,0.223
ACAGCTAG,-0.1
ACTGGGAC,-0.0757
GAGAGGTA,-0.218
CAAACTTA,0.191
AGAGCAAT,0.00801
AAGCCGAG,-0.315
AAGGAGTA,-0.0692
CAAGAAGG,0.0199
GCGTTTAA,0.19
CTACGAAG,-0.107

# Excerpt of the above (study 3):
Modification,mean fluorescence intensity [a.u.]
2'F-ANA at 1 6 7 8 9 10 11 13 14 15,53.1
2'F-ANA at 2 7 8 10 11 12 13 15,159
2'F-ANA at 1 2 3 4 6 7 9 13,83.7
2'F-ANA at 2 5 6 7 11 13 15,147
2'F-ANA at 2 3 5 6 8 9 10 11 12 13 15,58.5
2'F-ANA at 1 2 11 12 14,90.2
2'F-ANA at 3 6 10 12 13,522
2'F-ANA at 1 3 5 7 8 9 12 14,45.2
2'F-ANA at 1 4 6 7 9 10 11 12 13 14 15,93.3
